Measured values collected from several papers.
Protocols differ between the studies behind these lines. Several values in a cell are separate wells, animals, samples, runs or records. ± gives the spread as reported.
SLC22A1: Solute carrier family 22 member 1 (SLC22A1, Homo sapiens, UniProt O15245)
Sequence of UniProt O15245 (whole entry, looked up): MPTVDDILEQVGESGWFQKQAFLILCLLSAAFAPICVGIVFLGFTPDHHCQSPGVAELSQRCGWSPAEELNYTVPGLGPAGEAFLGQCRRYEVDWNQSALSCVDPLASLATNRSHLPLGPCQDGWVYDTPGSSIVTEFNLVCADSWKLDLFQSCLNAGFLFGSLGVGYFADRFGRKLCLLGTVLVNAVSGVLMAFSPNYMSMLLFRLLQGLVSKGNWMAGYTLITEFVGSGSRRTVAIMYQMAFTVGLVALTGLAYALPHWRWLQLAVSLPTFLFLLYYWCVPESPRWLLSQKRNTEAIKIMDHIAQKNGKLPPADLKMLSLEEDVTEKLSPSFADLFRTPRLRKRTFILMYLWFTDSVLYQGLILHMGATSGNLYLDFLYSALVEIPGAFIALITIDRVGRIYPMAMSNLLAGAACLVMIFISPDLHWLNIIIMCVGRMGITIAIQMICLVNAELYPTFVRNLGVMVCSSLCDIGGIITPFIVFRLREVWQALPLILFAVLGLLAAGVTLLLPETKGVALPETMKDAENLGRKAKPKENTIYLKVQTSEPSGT
CYP2E1: Cytochrome P450 2E1 (CYP2E1, Homo sapiens, UniProt P05181)
Sequence of UniProt P05181 (whole entry, looked up): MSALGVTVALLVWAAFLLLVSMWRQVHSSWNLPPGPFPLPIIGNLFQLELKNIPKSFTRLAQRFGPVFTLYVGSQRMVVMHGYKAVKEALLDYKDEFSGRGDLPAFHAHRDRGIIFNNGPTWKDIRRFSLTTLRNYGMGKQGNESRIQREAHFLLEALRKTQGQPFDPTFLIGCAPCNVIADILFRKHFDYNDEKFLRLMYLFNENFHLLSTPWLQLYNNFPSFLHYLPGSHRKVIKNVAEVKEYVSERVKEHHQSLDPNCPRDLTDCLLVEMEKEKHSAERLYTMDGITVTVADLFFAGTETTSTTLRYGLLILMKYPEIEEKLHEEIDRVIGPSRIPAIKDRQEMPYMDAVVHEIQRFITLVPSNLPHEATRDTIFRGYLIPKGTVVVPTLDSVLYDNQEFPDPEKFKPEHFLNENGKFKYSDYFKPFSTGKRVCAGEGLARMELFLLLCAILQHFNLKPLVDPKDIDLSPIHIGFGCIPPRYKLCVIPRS
AHR: Aryl hydrocarbon receptor (AHR, Homo sapiens, UniProt P35869)
Sequence of UniProt P35869 (whole entry, looked up): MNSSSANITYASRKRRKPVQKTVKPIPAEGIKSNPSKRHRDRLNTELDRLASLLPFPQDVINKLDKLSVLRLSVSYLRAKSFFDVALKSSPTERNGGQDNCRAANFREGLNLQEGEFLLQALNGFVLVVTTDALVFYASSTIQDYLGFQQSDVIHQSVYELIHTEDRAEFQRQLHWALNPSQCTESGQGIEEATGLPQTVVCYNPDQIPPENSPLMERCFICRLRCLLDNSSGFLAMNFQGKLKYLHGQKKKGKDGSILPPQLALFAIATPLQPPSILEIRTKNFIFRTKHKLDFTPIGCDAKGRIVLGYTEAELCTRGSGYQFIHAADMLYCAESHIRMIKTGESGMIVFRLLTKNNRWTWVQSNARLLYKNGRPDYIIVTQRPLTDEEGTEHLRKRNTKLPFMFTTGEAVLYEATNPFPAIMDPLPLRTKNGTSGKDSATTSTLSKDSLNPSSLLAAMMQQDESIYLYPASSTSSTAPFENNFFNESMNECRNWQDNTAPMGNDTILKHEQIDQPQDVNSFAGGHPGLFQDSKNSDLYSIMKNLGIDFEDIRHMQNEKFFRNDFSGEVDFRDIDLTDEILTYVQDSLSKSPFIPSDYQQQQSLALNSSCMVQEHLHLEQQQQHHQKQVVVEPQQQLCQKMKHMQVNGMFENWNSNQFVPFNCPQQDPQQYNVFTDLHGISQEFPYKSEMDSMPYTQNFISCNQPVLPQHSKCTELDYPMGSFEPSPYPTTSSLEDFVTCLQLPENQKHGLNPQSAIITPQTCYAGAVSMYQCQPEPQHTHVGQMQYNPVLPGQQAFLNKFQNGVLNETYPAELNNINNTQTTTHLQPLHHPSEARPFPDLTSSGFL
ALB: Albumin (ALB, Bos taurus, UniProt P02769)
Sequence of UniProt P02769 (whole entry, looked up): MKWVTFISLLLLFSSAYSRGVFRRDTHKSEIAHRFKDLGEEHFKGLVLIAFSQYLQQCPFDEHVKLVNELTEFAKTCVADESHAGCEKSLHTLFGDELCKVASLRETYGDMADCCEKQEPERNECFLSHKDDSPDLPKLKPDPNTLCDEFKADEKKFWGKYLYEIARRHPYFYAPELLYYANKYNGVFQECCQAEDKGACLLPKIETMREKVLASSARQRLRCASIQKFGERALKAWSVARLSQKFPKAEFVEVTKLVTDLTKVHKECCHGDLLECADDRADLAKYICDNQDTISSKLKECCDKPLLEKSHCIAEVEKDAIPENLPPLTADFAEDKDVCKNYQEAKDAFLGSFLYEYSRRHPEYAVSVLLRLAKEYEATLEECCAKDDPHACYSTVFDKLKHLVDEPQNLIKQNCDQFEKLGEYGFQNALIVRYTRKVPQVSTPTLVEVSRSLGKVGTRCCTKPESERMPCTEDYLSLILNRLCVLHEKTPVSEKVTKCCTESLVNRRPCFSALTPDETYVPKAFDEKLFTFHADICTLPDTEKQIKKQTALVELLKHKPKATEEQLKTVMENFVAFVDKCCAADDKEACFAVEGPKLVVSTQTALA
CYP2B6: Cytochrome P450 2B6 (CYP2B6, Homo sapiens, UniProt P20813)
Sequence of UniProt P20813 (whole entry, looked up): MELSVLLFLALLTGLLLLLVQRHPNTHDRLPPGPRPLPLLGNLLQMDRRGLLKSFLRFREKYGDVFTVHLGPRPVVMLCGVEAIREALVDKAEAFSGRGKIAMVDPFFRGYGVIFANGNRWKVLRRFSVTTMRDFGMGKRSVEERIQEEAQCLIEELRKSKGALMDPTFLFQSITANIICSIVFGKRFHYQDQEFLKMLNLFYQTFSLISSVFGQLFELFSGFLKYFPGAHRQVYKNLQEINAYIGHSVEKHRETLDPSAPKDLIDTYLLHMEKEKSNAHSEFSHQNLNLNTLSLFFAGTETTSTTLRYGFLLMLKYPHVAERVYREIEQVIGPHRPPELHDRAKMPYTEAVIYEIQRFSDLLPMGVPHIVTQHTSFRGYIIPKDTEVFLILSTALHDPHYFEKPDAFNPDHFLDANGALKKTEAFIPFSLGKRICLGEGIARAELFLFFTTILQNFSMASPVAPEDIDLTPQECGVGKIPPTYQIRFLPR
Sequence of UniProt P22460 (whole entry, looked up): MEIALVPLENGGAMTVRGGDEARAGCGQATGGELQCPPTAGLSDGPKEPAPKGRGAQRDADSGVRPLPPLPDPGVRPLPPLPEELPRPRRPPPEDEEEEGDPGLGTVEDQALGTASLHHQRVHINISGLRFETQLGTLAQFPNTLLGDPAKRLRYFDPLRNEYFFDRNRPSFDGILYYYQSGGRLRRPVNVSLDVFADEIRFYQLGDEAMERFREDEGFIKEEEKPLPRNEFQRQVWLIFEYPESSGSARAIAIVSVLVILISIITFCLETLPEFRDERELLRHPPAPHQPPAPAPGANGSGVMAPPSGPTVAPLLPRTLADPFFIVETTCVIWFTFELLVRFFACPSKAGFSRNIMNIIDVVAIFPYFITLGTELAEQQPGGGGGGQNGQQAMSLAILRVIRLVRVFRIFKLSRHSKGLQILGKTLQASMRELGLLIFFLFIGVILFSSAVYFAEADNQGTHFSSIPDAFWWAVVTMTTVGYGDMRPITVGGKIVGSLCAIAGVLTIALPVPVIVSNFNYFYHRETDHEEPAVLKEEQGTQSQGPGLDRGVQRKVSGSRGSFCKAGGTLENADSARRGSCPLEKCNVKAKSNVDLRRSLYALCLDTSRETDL
Sequence of UniProt P04798 (whole entry, looked up): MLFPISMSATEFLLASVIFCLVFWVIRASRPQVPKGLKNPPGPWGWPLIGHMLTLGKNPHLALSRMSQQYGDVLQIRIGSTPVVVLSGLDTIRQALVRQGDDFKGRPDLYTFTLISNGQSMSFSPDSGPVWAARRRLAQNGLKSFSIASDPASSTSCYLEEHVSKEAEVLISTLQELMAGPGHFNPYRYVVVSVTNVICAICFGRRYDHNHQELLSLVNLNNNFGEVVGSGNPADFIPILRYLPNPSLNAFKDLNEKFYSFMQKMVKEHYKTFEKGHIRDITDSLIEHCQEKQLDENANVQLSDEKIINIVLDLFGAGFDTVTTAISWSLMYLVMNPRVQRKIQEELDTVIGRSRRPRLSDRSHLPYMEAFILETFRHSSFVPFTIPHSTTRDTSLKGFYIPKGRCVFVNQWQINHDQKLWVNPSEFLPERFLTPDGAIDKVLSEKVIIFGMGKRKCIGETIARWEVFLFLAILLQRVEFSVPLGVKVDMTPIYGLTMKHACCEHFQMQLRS
Sequence of UniProt O94956 (whole entry, looked up): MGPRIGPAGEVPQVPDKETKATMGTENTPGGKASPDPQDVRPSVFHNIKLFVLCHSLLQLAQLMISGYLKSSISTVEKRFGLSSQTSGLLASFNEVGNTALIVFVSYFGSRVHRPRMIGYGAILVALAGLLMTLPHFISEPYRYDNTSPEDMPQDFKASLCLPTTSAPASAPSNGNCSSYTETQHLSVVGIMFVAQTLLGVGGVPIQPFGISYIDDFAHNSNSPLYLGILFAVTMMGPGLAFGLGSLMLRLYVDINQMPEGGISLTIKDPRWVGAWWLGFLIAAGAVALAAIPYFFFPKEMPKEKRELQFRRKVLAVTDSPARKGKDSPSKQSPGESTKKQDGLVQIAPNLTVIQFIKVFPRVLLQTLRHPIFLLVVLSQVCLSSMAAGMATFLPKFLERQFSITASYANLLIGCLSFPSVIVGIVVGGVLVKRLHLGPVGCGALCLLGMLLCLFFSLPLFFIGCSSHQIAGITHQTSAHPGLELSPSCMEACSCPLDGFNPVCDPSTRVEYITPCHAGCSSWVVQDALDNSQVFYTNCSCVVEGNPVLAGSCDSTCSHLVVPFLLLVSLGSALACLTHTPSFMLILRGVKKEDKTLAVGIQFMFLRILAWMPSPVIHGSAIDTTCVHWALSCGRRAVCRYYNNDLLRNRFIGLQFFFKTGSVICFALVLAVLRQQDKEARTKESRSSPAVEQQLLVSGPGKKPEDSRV

Structure (SMILES) | target | assay | system | conditions | how to read | endpoint | result
CCOC(=O)C1=C[C@@H](OC(CC)CC)[C@H](NC(C)=O)[C@@H](N)C1 | SLC22A1 | transport, inhibitor | transiently transfected cells | 100 µM, 10 (unit not given), with: metformin |  | inhibition | 26.3%
CC1(C)[C@H](C(=O)OCc2cccc(Oc3ccccc3)c2)[C@@H]1C=C(Cl)Cl | human microsomal CES1 | IVIVE from expressed enzymes | human, 5 years old, expressed human CES1 | 0.1 µM | relative to: total hepatic CLint in vivo | relative enzyme contribution | 48.7%
CC[C@H](C)[C@H](NC(=O)[C@H](CCCCN)NC(=O)[C@@H](NC(=O)[C@H](Cc1ccc(O)cc1)NC(=O)[C@H](CCCCN)NC(=O)[C@H](CCCCN)NC(=O)CNC(=O)[C@H](CCCCN)NC(=O)[C@@H](NC(=O)[C@H](C)NC(=O)[C@H](CC(C)C)NC(=O)[C@H](Cc1c[nH]c2ccccc12)NC(=O)CNC(=O)[C@@H](NC(=O)[C@H](Cc1ccccc1)NC(=O)[C@H](CCCCN)NC(=O)[C@H](CC(C)C)NC(=O)[C@H](Cc1ccccc1)NC(=O)[C@H](C)NC(=O)CNC(=O)[C@@H](N)CCSC)C(C)C)[C@@H](C)O)C(C)C)C(=O)N[C@@H](C)C(=O)N[C@@H](Cc1c[nH]c2ccccc12)C(=O)N[C@@H](CC(=O)O)C(=O)N[C@@H](Cc1c[nH]cn1)C(=O)N[C@@H](CCCCN)C(=O)NCC(=O)N[C@H](C(=O)N[C@H](C(=O)N[C@@H](CCSC)C(=O)N[C@@H](CCCCN)C(=O)N[C@@H](Cc1c[nH]c2ccccc12)C(=O)N[C@@H](CC(C)C)C(=O)N[C@@H](CC(N)=O)C(=O)N[C@@H](C)C(=O)NCC(=O)N[C@@H](CCC(N)=O)C(=O)N[C@H](C(=O)N[C@@H](Cc1ccccc1)C(=O)N[C@H](C(=O)N[C@@H](Cc1c[nH]c2ccccc12)C(=O)N[C@H](C(=O)N[C@@H](Cc1ccc(O)cc1)C(=O)N[C@@H](CCC(=O)O)C(=O)N[C@@H](CCC(N)=O)C(=O)N[C@H](C(=O)N[C@@H](CCCCN)C(=O)N[C@@H](CCCCN)C(=O)N[C@@H](CC(C)C)C(=O)N[C@@H](Cc1c[nH]c2ccccc12)C(=O)N[C@H](C(=O)O)[C@@H](C)O)[C@@H](C)CC)C(C)C)[C@@H](C)O)[C@@H](C)O)[C@@H](C)CC)[C@@H](C)O | lysozyme |  | Pediococcus damnosus, CECT 4797 | concentration not given, 3 h, 37 °C, with: lysozyme 1 mg/mL |  | residual antimicrobial activity | no effect
CC(C)CC(=O)OC[C@H]1O[C@@](C#N)(c2ccc3c(N)ncnn23)[C@H](O)[C@@H]1O | ABCB1 (Homo sapiens, UniProt P08183) |  | Caco-2 | 9 µM, with: verapamil 100 µM |  | Papp B to A | 3.05 ×10⁻⁶ cm/s
CCCCO | CYP2E1 | enzyme activity, inhibitor |  |  |  | IC50 | 110 µM
COc1ccc2cc1Oc1ccc(cc1)C[C@H]1c3cc(c(OC)cc3CCN1C)Oc1c(OC)c(OC)cc3c1[C@H](C2)N(C)CC3 | SLCO1B1 (Homo sapiens, UniProt Q9Y6L6) | transport, inhibitor |  | 10 µM, with: EG |  | inhibition | 31.8%
Oc1ccc(-c2cc(Cl)ccc2Cl)c(Cl)c1 | AHR | reporter gene, antagonist | AZ-AHR cells | 25 µM, with: TCDD 4.5 nM | relative to: TCDD 4.5 nM | maximum activity | 134%
CCCCCCCCc1ccc(CCC(N)(CO)CO)cc1 | SLC22A1 | transport, inhibitor | transiently transfected cells | 100 µM, 10 (unit not given), with: metformin |  | inhibition | 20%
C=CC1CO1 (stereo not shown) | CYP2E1 | enzyme activity, inhibitor |  | with: 4-nitrophenol 50 µM |  | IC50 | 260 µM
CC1(C)C(/C=C(\Cl)C(F)(F)F)C1C(=O)OC(C#N)c1cccc(Oc2ccccc2)c1 (stereo not shown) | human microsomal CES1 | IVIVE from expressed enzymes | human, 5 years old |  | relative to: total hepatic CLint in vivo | relative enzyme contribution | 58.9%
CN(C)C(=O)COC(=O)Cc1ccc(OC(=O)c2ccc(NC(=N)N)cc2)cc1 | SLC22A1 | transport, inhibitor | transiently transfected cells | 100 µM, 10 (unit not given), with: metformin |  | inhibition | 76.4%
Clc1ccc(-c2ccc(Cl)cc2Cl)cc1 | AHR | reporter gene, antagonist | AZ-AHR cells | 40 µM, with: TCDD 4.5 nM | relative to: TCDD 4.5 nM | maximum activity | 24%
O=S(=O)(NCCNC/C=C/c1ccc(Br)cc1)c1cccc2cnccc12 | PKA | inhibitor | mouse zygotes | 20 µM, injection, hCG, 72 h post, early embryonic development |  | dead embryos | 0% and 5%
COc1cc(-c2[o+]c3cc(O)cc(O)c3cc2O[C@@H]2O[C@H](CO)[C@@H](O)[C@H](O)[C@H]2O)cc(OC)c1O | ALB | fluorescence quenching |  | pH 7, 20 °C, with: 1 µM BSA |  | Kd | 99.1 ± 9.38 µM
CC1(C)C(C=C(Cl)Cl)C1C(=O)OC(C#N)c1ccc(F)c(Oc2ccccc2)c1 (stereo not shown) | human microsomal CES1 | IVIVE from expressed enzymes | human, 5 years old, expressed human CES1 | 0.1 µM | relative to: total hepatic CLint in vivo | relative enzyme contribution | 57.5%
O=C(O)C(F)(F)C(F)(F)C(F)(F)C(F)(F)C(F)(F)C(F)(F)C(F)(F)F | SLCO2B1 (Homo sapiens, UniProt O94956) | uptake, substrate | CHO cells stably expressing SLCO2B1, HBSS with HEPES | pH 7.4 |  | CLint | 10.1 ± 6 µL/min/mg
CC1CO1 (stereo not shown) | CYP2E1 | enzyme activity, inhibitor |  | with: 4-nitrophenol 50 µM |  | IC50 | 15000 µM
CC(C)Cn1cnc2c(N)nc3ccccc3c21 | Cytochrome P450 1A1 (CYP1A1, Homo sapiens, UniProt P04798) | granisetron 7-hydroxylation, inhibitor, LC-MS | HaCaT keratinocytes, benzo[a]pyrene-pretreated | 0.5 µM, 6 h, with: granisetron 1 µM |  | inhibition | ~35%
CC(C)[C@H](C(=O)O[C@H](C#N)c1cccc(Oc2ccccc2)c1)c1ccc(Cl)cc1 | human microsomal CES1 | IVIVE from expressed enzymes | human, liver, in vivo scaled | age-specific |  | enzyme contribution to CLint | 44.4%
O=C(NCCN1CCCC1)c1cc(-c2ccc(CN3CCOCC3)cc2)nc2ccc(F)cc12 | KCNA5 (Homo sapiens, UniProt P22460) | ion current, inhibitor, IonWorks patch clamp |  | 100 µM (highest tested) |  | inhibition | no inhibition
CCC[C@@](N)(CO)CCc1ccc(OCCCCCC(C)C)cc1 | CYP2B6 | enzyme activity, inhibitor |  |  |  | IC50 | 26.9 µM
COc1cc(N2CC[C@@]3(O)C(=O)c4cc(C)c(C)cc4N=C23)ccn1 | CYP2B6 | inhibitor |  |  |  | IC50 | < 50 µM
CC(C)=CC1C(C(=O)OC(C#N)c2cccc(Oc3ccccc3)c2)C1(C)C (stereo not shown) | human cytosolic CES2 | IVIVE from expressed enzymes | human, liver, in vivo scaled | age-specific |  | enzyme contribution to CLint | 0.18%
CN(C)N=O | CYP2E1 | enzyme activity, inhibitor |  | pH 7.4, 37 °C, with: 4-nitrophenol 50 µM |  | IC50 | 230 µM
NC(=O)c1nc(F)c[nH]c1=O | SLC22A1 | transport, inhibitor | transiently transfected cells | 100 µM, 10 (unit not given), with: metformin |  | inhibition | -2%
Oc1ccc(-c2ccc(Cl)cc2)c(Cl)c1 | AHR | reporter gene, antagonist | AZ-AHR cells | 25 µM, with: TCDD 4.5 nM | relative to: TCDD 4.5 nM | maximum activity | 63%
CCOc1ccc(-c2nc3ccc(-c4nc5ccc(N6CCN(C)CC6)cc5[nH]4)cc3[nH]2)cc1 | ALB | binding, fluorescence titration | PBS | 1 h |  | Kd | 48 ± 8 µM
CCC(CC)COC(=O)[C@H](C)N[P@](=O)(OC[C@H]1O[C@@](C#N)(c2ccc3c(N)ncnn23)[C@H](O)[C@@H]1O)Oc1ccccc1 | SLC22A1 | transport, inhibitor | transiently transfected cells | 100 µM, 10 (unit not given), with: metformin |  | inhibition | 78.9%

Excerpt of the above:
Structure (SMILES) | target | assay | system | conditions | how to read | endpoint | result
Oc1ccc(-c2ccc(Cl)cc2)c(Cl)c1 | AHR | reporter gene, antagonist | AZ-AHR cells | 25 µM, with: TCDD 4.5 nM | relative to: TCDD 4.5 nM | maximum activity | 63%
CCOc1ccc(-c2nc3ccc(-c4nc5ccc(N6CCN(C)CC6)cc5[nH]4)cc3[nH]2)cc1 | ALB | binding, fluorescence titration | PBS | 1 h |  | Kd | 48 ± 8 µM
CCC(CC)COC(=O)[C@H](C)N[P@](=O)(OC[C@H]1O[C@@](C#N)(c2ccc3c(N)ncnn23)[C@H](O)[C@@H]1O)Oc1ccccc1 | SLC22A1 | transport, inhibitor | transiently transfected cells | 100 µM, 10 (unit not given), with: metformin |  | inhibition | 78.9%
